Published values gathered from unrelated publications.
Compare with care: the assays were run in different laboratories.
Chain of UniProt Q9H7Z7 (whole entry, looked up): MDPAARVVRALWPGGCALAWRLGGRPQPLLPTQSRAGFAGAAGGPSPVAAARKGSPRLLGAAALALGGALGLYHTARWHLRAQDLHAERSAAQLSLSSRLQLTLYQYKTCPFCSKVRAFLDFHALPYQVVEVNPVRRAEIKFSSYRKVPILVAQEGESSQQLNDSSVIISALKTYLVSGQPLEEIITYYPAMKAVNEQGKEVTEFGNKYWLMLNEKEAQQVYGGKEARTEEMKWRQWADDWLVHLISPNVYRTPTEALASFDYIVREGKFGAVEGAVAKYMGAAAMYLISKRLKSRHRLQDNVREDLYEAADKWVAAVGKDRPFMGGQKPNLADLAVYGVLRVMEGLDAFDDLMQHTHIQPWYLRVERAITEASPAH

| Compound | target or system | assay | system | conditions | scale | endpoint | value |
| --- | --- | --- | --- | --- | --- | --- | --- |
| CC[C@H](C)[C@H](NC(=O)[C@H](CCCCN)NC(=O)[C@@H](NC(=O)[C@H](Cc1ccc(O)cc1)NC(=O)[C@H](CCCCN)NC(=O)[C@H](CCCCN)NC(=O)CNC(=O)[C@H](CCCCN)NC(=O)[C@@H](NC(=O)[C@H](C)NC(=O)[C@H](CC(C)C)NC(=O)[C@H](Cc1c[nH]c2ccccc12)NC(=O)CNC(=O)[C@@H](NC(=O)[C@H](Cc1ccccc1)NC(=O)[C@H](CCCCN)NC(=O)[C@H](CC(C)C)NC(=O)[C@H](Cc1ccccc1)NC(=O)[C@H](C)NC(=O)CNC(=O)[C@@H](N)CCSC)C(C)C)[C@@H](C)O)C(C)C)C(=O)N[C@@H](C)C(=O)N[C@@H](Cc1c[nH]c2ccccc12)C(=O)N[C@@H](CC(=O)O)C(=O)N[C@@H](Cc1c[nH]cn1)C(=O)N[C@@H](CCCCN)C(=O)NCC(=O)N[C@H](C(=O)N[C@H](C(=O)N[C@@H](CCSC)C(=O)N[C@@H](CCCCN)C(=O)N[C@@H](Cc1c[nH]c2ccccc12)C(=O)N[C@@H](CC(C)C)C(=O)N[C@@H](CC(N)=O)C(=O)N[C@@H](C)C(=O)NCC(=O)N[C@@H](CCC(N)=O)C(=O)N[C@H](C(=O)N[C@@H](Cc1ccccc1)C(=O)N[C@H](C(=O)N[C@@H](Cc1c[nH]c2ccccc12)C(=O)N[C@H](C(=O)N[C@@H](Cc1ccc(O)cc1)C(=O)N[C@@H](CCC(=O)O)C(=O)N[C@@H](CCC(N)=O)C(=O)N[C@H](C(=O)N[C@@H](CCCCN)C(=O)N[C@@H](CCCCN)C(=O)N[C@@H](CC(C)C)C(=O)N[C@@H](Cc1c[nH]c2ccccc12)C(=O)N[C@H](C(=O)O)[C@@H](C)O)[C@@H](C)CC)C(C)C)[C@@H](C)O)[C@@H](C)O)[C@@H](C)CC)[C@@H](C)O | Trueperella pyogenes | broth microdilution | – | 37 °C | – | MIC | 3.9 mg/L |
| C[C@@H](O)[C@@H](CO)NC(=O)[C@@H](CCCNC(=N)N)NC(=O)[C@@H]1CCCN1C(=O)[C@@H]1CSSC[C@H](NC(=O)[C@H](Cc2ccccc2)NC(=O)CN2CCN(CC(=O)O)CCN(CC(=O)O)CCN(CC(=O)O)CC2)C(=O)N[C@@H](Cc2ccc(O)cc2)C(=O)N[C@@H](Cc2ccccc2)C(=O)N[C@@H](CCC(N)=O)C(=O)N[C@@H](CC(N)=O)C(=O)N1 [gallium-68 labelled] | – | – | Wistar rat, healthy, Lacrimal gland | intravenous, 8 MBq, 120 min | – | tissue uptake | 0.05 %ID/g |
| O=C(CCCCCCCCCCOc1ccccc1)NP(=O)(O)O | Streptococcus pneumoniae | – | – | – | – | MIC | 100 mg/L |
| Fc1ccc([C@@H]2CCNC[C@H]2COc2ccc3c(c2)OCO3)cc1 | Plasmodium falciparum | – | W2 | – | – | IC50 | 2.51 µM |
| CC[C@H](C)[C@H](NC(=O)[C@H](Cc1ccccc1)NC(=O)[C@H](CCC(=O)O)NC(=O)[C@H](CCCNC(=N)N)NC(=O)[C@H](C)NC(=O)[C@H](C)NC(=O)[C@H](CCC(N)=O)NC(=O)[C@H](CCC(=O)O)NC(=O)[C@H](CCC(=O)O)NC(=O)[C@H](CC(C)C)NC(=O)[C@H](Cc1ccc(O)cc1)NC(=O)[C@H](CO)NC(=O)[C@H](CO)NC(=O)[C@@H](NC(=O)[C@H](CC(=O)O)NC(=O)[C@H](CO)NC(=O)[C@@H](NC(=O)[C@H](Cc1ccccc1)NC(=O)[C@@H](NC(=O)CNC(=O)[C@H](CCC(=O)O)NC(=O)[C@H](C)NC(=O)CCc1c[nH]cn1)[C@@H](C)O)[C@@H](C)O)C(C)C)C(=O)N[C@@H](C)C(=O)N[C@@H](Cc1c[nH]c2ccccc12)C(=O)N[C@@H](CC(C)C)C(=O)N[C@H](C(=O)N[C@@H](CCCNC(=N)N)C(=O)NCC(=O)N[C@@H](CCCNC(=N)N)C(=O)N[C@@H](CCCCNC(=O)COCCOCCNC(=O)COCCOCCNC(=O)CC[C@H](NC(=O)CCCCCCCCCCCCCCCCC(=O)O)C(=O)O)C(=O)NCC(=O)NCC(=O)N[C@@H](CO)C(=O)N[C@@H](CCCCNc1c(NCCCCCN(O)C(=O)CCC(=O)NCCCCCN(O)C(=O)CCC(=O)NCCCCCN(O)C(C)=O)c(=O)c1=O)C(=O)O)C(C)C [zirconium-89 labelled] | – | – | rat, pancreas | sc, 3 nmol/kg, 4 h, ex vivo | – | tissue uptake | 0.13 %ID/g |
| CC[C@H](C)[C@@H]1NC(=O)[C@@H]2CCCN2C(=O)[C@H](CC(C)C)NC(=O)[C@H](CC(C)C)NC(=O)CNC(=O)[C@@H](NC(=O)[C@@H](NC(=O)[C@H](CC(=O)O)NC(=O)CNC(=O)[C@@H](NC(=O)[C@H](C)NC(=O)CNC(=O)[C@H](CCCCN)NC(=O)[C@H](CC(C)C)NC(=O)[C@H](CC(C)C)NC(=O)[C@H](CCCCN)NC(=O)CNC(=O)[C@@H](NC(=O)[C@@H](N)CC(C)C)C(C)C)C(C)C)C(C)C)CSSC[C@@H](C(=O)O)NC1=O | – | RNA-seq, item: Casp4 | mouse, traumatic brain injury model, frontal cortex and hippocampus | dose not given | baseline: TBI alone | log2 fold change | 1.58 |
| CC1(C)SC2C(NC(=O)C(NC(=O)C3=C(O)C(c4ccccc4)NC3=O)c3ccccc3)C(=O)N2C1C(=O)O (centres unmarked) | Escherichia coli | broth microdilution | isolate IU 356 A, KPC-3, VIM-1, TEM | no clavulanic acid | – | MIC | > 200 mg/L |
| O=C(O)CN(CC(=O)O)CC(=O)O | Providencia stuartii | – | NDM-1 producer | 32 µg/mL, MIC of meropenem, together with: meropenem | – | MIC | 0.25 mg/L |
| O=C(NN=Cc1ccc(O)c(Br)c1)c1cccc(Br)c1 | Cryptococcus neoformans | – | – | compound alone, together with: caspofungin | – | MIC | 0.3 mg/L |
| c1ccc(CCOC2CCCc3c2[nH]c2ccccc32)cc1 (centres unmarked) | Staphylococcus simulans | broth microdilution | 22 | – | – | MIC | > 16 mg/L |
| CC(C)C[C@H](NC(=O)[C@H](CCCNC(=N)N)NC(=O)[C@H](Cc1c[nH]c2ccccc12)NC(=O)[C@H](CCCNC(=N)N)NC(=O)[C@H](Cc1c[nH]c2ccccc12)NC(=O)[C@H](Cc1c[nH]c2ccccc12)NC(=O)[C@H](Cc1c[nH]c2ccccc12)NC(=O)[C@H](CCCNC(=N)N)NC(=O)[C@H](Cc1c[nH]c2ccccc12)NC(=O)[C@@H](N)CCCNC(=N)N)C(N)=O | Candida albicans | broth microdilution | alveolar fluid isolate, RPMI 1640-MOPS | 48 h, 30 °C | – | MIC | 16 µM |
| COc1cc(Nc2ncc(F)c(Nc3ccc4c(n3)NC(=O)C(C)(C)O4)n2)cc(OC)c1OC | kainate receptor | binding | – | – | – | IC50 | > 10 µM |
| C[C@H]1CN(c2n[nH]c3nc(N[C@H]4CC[C@H](NS(=O)(=O)CCC(F)(F)F)CC4)ncc23)CCO1 | Prostaglandin E synthase 2 (Homo sapiens, UniProt Q9H7Z7) | Kinobeads competition, item: PTGES2 | – | 20 µM, unit not given | baseline: vehicle | remaining binding | 1.08 |
| N=C(N)c1ccc(OCCCCCOc2ccc(C(=N)N)cc2)cc1 | Escherichia coli | – | BW25113 mcr-1 | in combination, checkerboard, together with: rifampicin | – | MIC | 50 mg/L |
| N=C(N)NCCC[C@H](NC(=O)CN)C(=O)N[C@@H](Cc1c[nH]c2ccccc12)C(=O)N[C@@H](CCCNC(=N)N)C(=O)N[C@@H](Cc1c[nH]c2ccccc12)C(=O)N[C@@H](Cc1c[nH]c2ccccc12)C(=O)N[C@@H](Cc1c[nH]c2ccccc12)C(=O)N[C@@H](CCCNC(=N)N)C(=O)N[C@@H](Cc1c[nH]c2ccccc12)C(=O)N[C@@H](CCCNC(=N)N)C(=O)N[C@@H](Cc1ccccc1)C(N)=O | Candida albicans | broth microdilution | 56452, RPMI 1640-MOPS | 48 h, 30 °C | – | MIC | 8 µM |
| CN[C@H](CC(C)C)C(=O)N[C@H]1C(=O)N[C@@H](CC(N)=O)C(=O)N[C@H]2C(=O)N[C@H]3C(=O)N[C@H](C(=O)N[C@H](C(=O)O)c4cc(O)cc(O)c4-c4cc3ccc4O)[C@H](O)c3ccc(c(Cl)c3)Oc3cc2cc(c3O[C@@H]2O[C@H](CO)[C@@H](O)[C@H](O)[C@H]2O[C@H]2C[C@](C)(N)[C@H](O)[C@H](C)O2)Oc2ccc(cc2Cl)[C@H]1O | Clostridioides difficile | agar dilution anaerobic | 3588 | 48 h | – | MIC | 2 mg/L |
| CN1CC(O)=C(C(=O)NC(C(=O)NC2C(=O)N3C2SC(C)(C)C3C(=O)O)c2ccccc2)C1=O (centres unmarked) | Escherichia coli | broth microdilution | isolate IU, CTX-M-14, TEM-1 | together with: clavulanic acid 6 µg/mL | – | MIC | > 200 mg/L |
| N=C(N)NCCC[C@H](NC(=O)[C@H](Cc1c[nH]c2ccccc12)NC(=O)[C@H](CCCNC(=N)N)NC(=O)[C@H](Cc1c[nH]c2ccccc12)NC(=O)[C@H](Cc1c[nH]c2ccccc12)NC(=O)[C@H](Cc1c[nH]c2ccccc12)NC(=O)[C@H](CCCNC(=N)N)NC(=O)[C@H](Cc1c[nH]c2ccccc12)NC(=O)[C@@H](N)CCCNC(=N)N)C(N)=O | Candida albicans | – | CGMCC 2.209 | no added salts | – | MIC | 8 µM |
| CC[C@H](C)[C@H](NC(=O)[C@@H](NC(=O)[C@H](Cc1ccccc1)NC(=O)CNC(=O)[C@H](CCC(N)=O)NC(=O)[C@H](CCCCN)NC(=O)[C@H](C)N)C(C)C)C(=O)N[C@@H](Cc1ccc(O)cc1)C(=O)N[C@@H](CCCNC(=N)N)C(=O)N[C@H](C(=O)N[C@@H](CCCNC(=N)N)C(=O)N[C@H](C(=O)N[C@@H](CCCNC(=N)N)C(=O)N[C@@H](CCCNC(=N)N)C(=O)NCC(=O)N[C@@H](CC(N)=O)C(=O)N[C@@H](CCCNC(=N)N)C(=O)N[C@@H](CCCCN)C(N)=O)C(C)C)C(C)C | Salmonella typhimurium | broth dilution | SL1344 | – | – | MIC | 12.5 µM |
| CC[C@H](C)[C@H](NC(=O)CN)C(=O)NCC(=O)N[C@@H](C)C(=O)N[C@H](C(=O)N[C@@H](CC(C)C)C(=O)N[C@@H](CCCCN)C(=O)N[C@H](C(=O)N[C@@H](CC(C)C)C(=O)N[C@H](C(=O)N[C@H](C(=O)NCC(=O)N[C@@H](CC(C)C)C(=O)N1CCC[C@H]1C(=O)N[C@@H](C)C(=O)N[C@@H](CC(C)C)C(=O)N[C@H](C(=O)N[C@@H](CO)C(=O)N[C@@H](Cc1c[nH]c2ccccc12)C(=O)N[C@H](C(=O)N[C@@H](CCCCN)C(=O)N[C@@H](CCCNC(=N)N)C(=O)N[C@@H](CCCCN)C(=O)N[C@@H](CCCNC(=N)N)C(=O)N[C@@H](CCC(N)=O)C(=O)N[C@@H](CCC(N)=O)C(N)=O)[C@@H](C)CC)[C@@H](C)CC)[C@@H](C)O)[C@@H](C)O)C(C)C)C(C)C | Candida albicans | broth microdilution | SP3876, RPMI 1640-MOPS | 48 h, 30 °C | – | MIC | 2 µM |
| CC1(C)SC2C(NC(=O)C(NC(=O)C3=C(O)C(Cc4ccccc4)NC3=O)c3ccccc3)C(=O)N2C1C(=O)O (centres unmarked) | Escherichia coli | broth microdilution | Keio mutant JW0146-2 | 18 h, ferric hydroxamate uptake gene | – | MIC | 12.5 mg/L |
| CCCCCCCC/C=C\CCCCCCCC(=O)NS(=O)(=O)NCCC | Streptococcus pneumoniae | – | – | – | – | MIC | > 200 mg/L |
| CC(C)(C)OCC1NC(=O)C(C(=O)NC(C(=O)NC2C(=O)N3C2SC(C)(C)C3C(=O)O)c2ccccc2)=C1O (centres unmarked) | Escherichia coli | broth microdilution | isolate IU, CTX-M-14, TEM-1 | no clavulanic acid | – | MIC | > 200 mg/L |
| C[C@@H]1CC[C@H]2[C@@H](C)C(=O)O[C@@H]3O[C@@]4(C)CC[C@@H]1[C@]32OO4 | Plasmodium falciparum | cell growth | HB3 | – | – | IC50 | 0.021 µM |
| CC1(C)SC2C(NC(=O)C(NC(=O)C3=C(O)C(Cc4ccc([N+](=O)[O-])cc4)NC3=O)c3ccccc3)C(=O)N2C1C(=O)O (centres unmarked) | Escherichia coli | broth microdilution | isolate IU, CTX-M-14, TEM-1 | no clavulanic acid | – | MIC | > 200 mg/L |
| CCCCCCCCCCCCCCCC(=O)C(F)(F)P(=O)(O)O | Streptococcus pneumoniae | – | – | – | – | MIC | > 200 mg/L |

A few entries again:
| Compound | target or system | assay | system | conditions | scale | endpoint | value |
| --- | --- | --- | --- | --- | --- | --- | --- |
| COc1cc(Nc2ncc(F)c(Nc3ccc4c(n3)NC(=O)C(C)(C)O4)n2)cc(OC)c1OC | kainate receptor | binding | – | – | – | IC50 | > 10 µM |
| C[C@H]1CN(c2n[nH]c3nc(N[C@H]4CC[C@H](NS(=O)(=O)CCC(F)(F)F)CC4)ncc23)CCO1 | Prostaglandin E synthase 2 (Homo sapiens, UniProt Q9H7Z7) | Kinobeads competition, item: PTGES2 | – | 20 µM, unit not given | baseline: vehicle | remaining binding | 1.08 |
